Published values of several laboratories.
Parts stem from different laboratories: compare values within a part only. Positions count from the first letter of the parent shown.

Sample 1 — target: CCNE2, cyclin fold, Cln2 fusion (human); method: yeast growth competition, sequencing; medium: yeast; notes: weak parent motif; relative to: not given; reading: higher = stronger binding
Parent: ORC1 docking peptide (human); PRARKRLELGNLG
| Substitution | normalised enrichment score |
| --- | --- |
| G13W | -0.67 |
| R2E | 0.351 |
| R2A | 0.288 |
| P1S | 1.14 |
| L12G | 0.25 |

Sample 2 — target: CREM, bZIP domain (human); method: DHFR protein complementation; medium: yeast; relative to: wild-type JUN-FOS pair; reading: higher = stronger binding
Notes: single substitutions, most at no-binding floor
Parent: JUN, bZIP domain (human); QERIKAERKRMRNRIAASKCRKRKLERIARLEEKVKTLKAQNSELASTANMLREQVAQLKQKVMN; partner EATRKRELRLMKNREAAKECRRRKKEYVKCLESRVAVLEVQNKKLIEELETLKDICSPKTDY
| Substitution | binding fitness [natural log] |
| --- | --- |
| A46W | -1.47 |
| S47A | -1.38 |
| R53G | -1.41 |
| L59H | -1.37 |
| L52A | -1.45 |
| E54R | -1.34 |
| K34L | -1.42 |

Sample 3 — method: DHFR PCA, deep sequencing; medium: yeast; together with: (+)-ABA 17 µM; relative to: wild-type fitted maximum; reading: higher = stronger binding
Target: ABI1, truncated, D143A, DHFR fusion (Arabidopsis thaliana)
Notes: methotrexate growth selection, single substitutions
Parent: PYL1, truncated, DHFR fusion (Arabidopsis thaliana); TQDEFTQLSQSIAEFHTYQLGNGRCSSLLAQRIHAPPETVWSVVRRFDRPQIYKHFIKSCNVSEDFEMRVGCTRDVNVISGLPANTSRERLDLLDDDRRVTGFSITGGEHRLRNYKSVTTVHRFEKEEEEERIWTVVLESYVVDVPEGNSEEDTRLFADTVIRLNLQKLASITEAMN
| Substitution | relative binding score [%] |
| --- | --- |
| A30T | 85.5 |
| F103H | 11.9 |
| I172E | 32.9 |
| F56G | -0.785 |
| A30I | 80.5 |
| I52H | 68.9 |
| G148P | 29.4 |
| E147Q | 81.9 |

Other studies, line by line
| Molecule | target | assay | system | conditions | scale | endpoint | value |
| --- | --- | --- | --- | --- | --- | --- | --- |
| PhoQ, residues 284 288 289 292 302 303 WSHMKI | PhoP, residues 12 14 15 18 19 LHHSG (Escherichia coli, UniProt P23836) | Sort-seq, item: YFP reporter | E. coli | PhoQ-PhoP variant library, together with: 10 µM Mg2+ | relative to: high Mg2+ state, higher = stronger signaling | fold induction | 4.98 |

Some of these lines once more (sample 2):
| Substitution | binding fitness [natural log] |
| --- | --- |
| E54R | -1.34 |
| K34L | -1.42 |
